Published values of several laboratories.
Numbered parts are unrelated; each lists some results of a single study. Positions count from the first letter of the parent shown.
Chain of UniProt Q99640 (whole entry, looked up): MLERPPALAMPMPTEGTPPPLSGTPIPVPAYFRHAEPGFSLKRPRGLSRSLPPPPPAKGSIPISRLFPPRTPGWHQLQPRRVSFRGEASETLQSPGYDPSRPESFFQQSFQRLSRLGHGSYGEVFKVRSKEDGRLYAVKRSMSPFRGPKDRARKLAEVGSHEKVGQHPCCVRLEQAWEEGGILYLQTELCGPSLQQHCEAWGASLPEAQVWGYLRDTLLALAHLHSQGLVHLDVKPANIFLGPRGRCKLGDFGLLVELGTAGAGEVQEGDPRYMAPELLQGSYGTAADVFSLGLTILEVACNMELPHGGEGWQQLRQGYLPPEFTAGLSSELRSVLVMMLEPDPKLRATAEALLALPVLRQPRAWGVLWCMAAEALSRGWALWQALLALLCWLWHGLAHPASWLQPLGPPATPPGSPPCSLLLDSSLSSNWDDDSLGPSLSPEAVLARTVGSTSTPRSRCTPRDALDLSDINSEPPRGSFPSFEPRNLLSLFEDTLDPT

Set 1
Target: ABI1, truncated, D143A, DHFR fusion (Arabidopsis thaliana)
Method: DHFR PCA, deep sequencing
Medium: yeast
Notes: methotrexate growth selection, single substitutions
Together with: (+)-ABA 0.032 µM
Relative to: wild-type fitted maximum
Reading: higher = stronger binding
Endpoint: relative binding score
Parent: PYL1, truncated, DHFR fusion (Arabidopsis thaliana); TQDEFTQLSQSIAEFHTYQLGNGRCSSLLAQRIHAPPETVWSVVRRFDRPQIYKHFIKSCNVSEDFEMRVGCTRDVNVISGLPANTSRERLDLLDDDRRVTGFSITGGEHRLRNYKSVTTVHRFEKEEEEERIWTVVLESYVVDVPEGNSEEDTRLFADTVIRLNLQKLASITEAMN; partner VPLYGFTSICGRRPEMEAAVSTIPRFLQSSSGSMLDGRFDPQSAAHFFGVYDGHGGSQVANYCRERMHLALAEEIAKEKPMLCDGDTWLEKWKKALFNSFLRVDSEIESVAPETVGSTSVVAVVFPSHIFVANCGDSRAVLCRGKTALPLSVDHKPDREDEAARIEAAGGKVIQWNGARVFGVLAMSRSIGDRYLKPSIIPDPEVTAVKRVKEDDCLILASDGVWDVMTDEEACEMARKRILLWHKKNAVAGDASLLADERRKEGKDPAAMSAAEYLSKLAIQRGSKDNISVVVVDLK
R46K: 3.11%
I79P: 2.35%
G71L: -0.0861%
N22H: 40.2%
N149I: 34.7%
V76Q: -7.37%
D3E: 39.8%
I172Y: -6.9%

Set 2
Target: Probable WRKY transcription factor 11, DNA-binding domain (WRKY11, Arabidopsis thaliana, UniProt Q9SV15, residues 228-325)
Method: DNA-protein interaction ELISA
Form: double-stranded DNA, one strand shown
Medium: in vitro, bacterial lysate
Concentration: not given
Notes: whole dsDNA probe, crude lysate protein
Relative to: highest signal in screen
Reading: higher = stronger binding
Endpoint: relative absorbance
Construct (chain): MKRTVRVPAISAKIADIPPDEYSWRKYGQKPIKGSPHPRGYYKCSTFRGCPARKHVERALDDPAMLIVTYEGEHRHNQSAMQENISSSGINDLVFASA
AAAAAAGGCCACGGTAACCCCTTTTGAAAA: 17.6 % of maximum
AAAAAAACGGTGTCATAGTATTAGTGAAAA: 14.1 % of maximum
AAAAAAGGGTTTAGATGTCCTTCAAAAAAA: 15 % of maximum
AAAAAATCAACCATTATGGTATTACTAAAA: 18.4 % of maximum
AAAAAATTTGGTCTTCGTCCTCGCTTAAAA: 27.4 % of maximum
AAAAAATCGGGGATCCGGGCGGTTGCAAAA: 16.7 % of maximum
AAAAAATGTATTCGTGTCCACTCCATAAAA: 13.8 % of maximum
AAAAAAGGTCTGGACGATCACCGGGAAAAA: 13.8 % of maximum

Set 3
Target: CCNA2, cyclin fold, Cln2 fusion (human)
Method: yeast growth competition, sequencing
Medium: yeast
Notes: strong parent motif
Relative to: not given
Reading: higher = stronger binding
Endpoint: normalised enrichment score
Parent: viral docking peptide; KGVKRKLFAEDSS
KGMKRKLFAEDSS [V3M]: 2.35
KGVKRKLAAEDSS [F8A]: 0.874
KGTKRKLFAEDSS [V3T]: 4.95
KGVKRKLFAVDSS [E10V]: 5.79
KGVKRKLFAENSS [D11N]: 6.33
KGVKRKLFAEDIS [S12I]: 6.62
KGVQRKLFAEDSS [K4Q]: 5.32
KGVLRKLFAEDSS [K4L]: 1.47
KQVKRKLFAEDSS [G2Q]: 6.4
KGVKRKLMAEDSS [F8M]: 1.17
KLVKRKLFAEDSS [G2L]: 6.13
KGVKRKLFAEASS [D11A]: 6.44
KGVKRKLFAEDTS [S12T]: 6.22
KGVKRRLFAEDSS [K6R]: 6.94
KGVKRSLFAEDSS [K6S]: 5.28
KGVKRKLFVEDSS [A9V]: 6.26
KGVKRKLFAEDNS [S12N]: 6.35
KGVKRKLFALDSS [E10L]: 5.7
KGVKFKLFAEDSS [R5F]: 1.25
KGVKRCLFAEDSS [K6C]: 6.29
KGGKRKLFAEDSS [V3G]: 2.24
KGVKMKLFAEDSS [R5M]: 2.22
KGVKRTLFAEDSS [K6T]: 5.47
KGVKRKLFKEDSS [A9K]: 5.97
KGVKRKLFDEDSS [A9D]: 6.31

Set 4
Target: CRIPT, C-terminal peptide
Method: DHFR complementation, deep sequencing
Medium: yeast
Notes: single substitutions, model-inferred values
Relative to: wild type
Reading: higher = weaker binding
Endpoint: binding free energy change
Parent: ERBIN, PDZ domain 1 (human); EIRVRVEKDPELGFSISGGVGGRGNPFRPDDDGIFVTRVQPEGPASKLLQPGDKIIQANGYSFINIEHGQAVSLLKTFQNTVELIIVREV; partner TKNYKQTSV
E11Q: -0.13 kcal/mol
V72N: 1.72 kcal/mol
P44A: 0.239 kcal/mol
P51C: 0.218 kcal/mol
P44T: 0.729 kcal/mol
K76I: 0.33 kcal/mol
E11K: -0.273 kcal/mol
S73M: 0.0434 kcal/mol

Other studies, line by line
C[C@@H]1C[C@@H]([C@H](O)CC2CC(=O)NC(=O)C2)C(=O)[C@@H](C)C1
remaining protein level (Membrane-associated tyrosine- and threonine-specific cdc2-inhibitory kinase (PKMYT1, Homo sapiens, UniProt Q99640); immunoblotting; HCC1569; 50 µg/mL, 8 h): 66.6%

KQLGQVMLL
binding (HLA class I histocompatibility antigen, B alpha chain, allele B*48:01 (Homo sapiens, UniProt P01889); peptide-MHC binding; peptide; concentration not given): active
